Experimental data pooled from the literature.
Each numbered part is a random draw from the data of one study; scales do not carry over between parts.

Set 1
Target: Histone acetyltransferase KAT6A, both winged helices, GST fusion (KAT6A, Homo sapiens, UniProt Q92794, residues 1-181)
Method: protein binding microarray
Molecule type: double-stranded DNA, one strand shown
Medium: in vitro
Concentration: not given
Setting: 8-mer, flanks averaged, mean of 2 arrays, mostly near background
Relative to: not given
Reading: higher = stronger binding
Residues (chain): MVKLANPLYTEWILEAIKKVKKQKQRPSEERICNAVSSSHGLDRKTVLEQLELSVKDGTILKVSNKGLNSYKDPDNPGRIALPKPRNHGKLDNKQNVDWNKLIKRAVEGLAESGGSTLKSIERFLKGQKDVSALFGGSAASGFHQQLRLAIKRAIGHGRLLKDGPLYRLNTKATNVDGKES
Oligonucleotide	E-score
ACGCTTAA	0.0573
TAAAACGA	-0.178
CCGACGGC	0.398
AGGGACAT	-0.0122
CATAACGA	-0.0515
ATATCTAG	-0.0971
AACCCGTG	0.287

Set 2
Target: Interferon regulatory factor 7, full length, phosphomimetic (IRF7, Homo sapiens, UniProt Q92985, residues 1-503, S471D/S472D/S475D/S476D/S477D/S483D/S484D/S487D)
Method: protein-binding microarray
Molecule type: double-stranded DNA, one strand shown
Medium: in vitro
Concentration: 2200 nM top
Setting: 60-bp whole probe
Together with: salmon DNA 0.4 mg/ml
Relative to: random background probes
Reading: higher = stronger binding
All sequences stand within: GCCTAGCAC … GTCTTGATTCGCTTGACGCTGCTG
Construct (chain): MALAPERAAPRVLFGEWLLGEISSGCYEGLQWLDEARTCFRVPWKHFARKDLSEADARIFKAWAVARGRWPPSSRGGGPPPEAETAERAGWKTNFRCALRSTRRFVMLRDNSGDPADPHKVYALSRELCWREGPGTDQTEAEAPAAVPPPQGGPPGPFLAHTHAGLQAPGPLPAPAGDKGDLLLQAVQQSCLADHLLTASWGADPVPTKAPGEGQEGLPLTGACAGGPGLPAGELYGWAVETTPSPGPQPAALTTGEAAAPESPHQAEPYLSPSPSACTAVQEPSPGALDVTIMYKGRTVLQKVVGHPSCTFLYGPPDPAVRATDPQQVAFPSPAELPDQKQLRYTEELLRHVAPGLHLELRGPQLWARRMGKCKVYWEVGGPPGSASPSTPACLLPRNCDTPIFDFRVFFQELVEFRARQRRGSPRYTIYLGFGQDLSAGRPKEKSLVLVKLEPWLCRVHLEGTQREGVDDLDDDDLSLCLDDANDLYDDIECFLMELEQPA
Oligonucleotide	fitted relative affinity [z-score]
GTGTGTTTGAGTCTTCTCCTGTGCTAG	1.22
TTAGGACTGGACTATCGCTTAGTGCTA	-0.311
TTAGGTATCTGTTTCGGTTAGTGCTAG	4.71
GACGGTCACCTTTTCCTGACGTGCTAG	1.1
GATGGTTCCGGTTTCGGGACGTGCTAG	5.99
ATTTTTTTCTAAGTAAACCCGTGCTAG	0.399

Set 3
Target: Sal-like protein 4, full length isoform B (SALL4, Homo sapiens, UniProt Q9UJQ4-2, residues 1-616)
Method: universal PBM
Molecule type: double-stranded DNA, one strand shown
Medium: in vitro
Concentration: not given
Setting: 8-mer, flanks averaged, mean of replicates
Reading: higher = stronger binding
Oligonucleotide	E-score
CACGTCCG	-0.227
GCAATACC	0.0229
GTCGCTAA	0.0283
CCCAAGGG	-0.338

Single results of other studies
Molecule	target	test	test system	conditions	scale	measurement	value
PhoQ, residues 284 288 289 292 302 303 SLANIV	PhoP, residues 12 14 15 18 19 SEGLL (Escherichia coli, UniProt P23836)	Sort-seq, refers to: YFP reporter	E. coli	PhoQ-PhoP variant library, together with: 10 µM Mg2+	relative to: high Mg2+ state, higher = stronger signaling	fold induction	5.5
